Results gathered from unrelated publications.
Each numbered part is a random draw from the data of one study; scales do not carry over between parts.

Study 1
Target: TAR DNA-binding protein 43, full length, His tag (TARDBP, Homo sapiens, UniProt Q13148, residues 1-414)
Technique: RNA Bind-n-Seq
Molecule type: RNA
Medium: in vitro
Concentration: 20 nM
Setting: 6-mer, flanks averaged, single round
Added: 150 mM KCl
Relative to: input library
Direction: higher = stronger binding
| Oligonucleotide | 6-mer enrichment (R) |
| --- | --- |
| GACGGG | 4.33 |
| AUAGCC | 0.64 |
| AGUUUU | 0.642 |
| UGUAAA | 0.695 |
| UGCUCG | 0.754 |
| UUGAGC | 0.766 |
| CCAAAC | 0.619 |
| GGAUAA | 0.963 |

Study 2
Target: Histone acetyltransferase KAT6A, winged helix 2, GST fusion (KAT6A, Homo sapiens, UniProt Q92794, residues 85-181)
Technique: protein binding microarray
Molecule type: double-stranded DNA, one strand shown
Medium: in vitro
Concentration: not given
Setting: 8-mer, flanks averaged, mean of 2 arrays, mostly near background
Relative to: not given
Direction: higher = stronger binding
Residues (chain): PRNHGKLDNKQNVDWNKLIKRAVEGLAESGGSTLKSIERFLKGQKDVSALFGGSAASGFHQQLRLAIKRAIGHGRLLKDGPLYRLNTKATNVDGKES
| Oligonucleotide | E-score |
| --- | --- |
| ATCCTACG | -0.0797 |
| ACACAGCC | 0.00859 |
| AGGTTCGG | -0.0333 |
| AGAGAGCA | 0.127 |
| ATCGAGCA | 0.173 |
| CGGTTTAC | -0.0778 |
| CTATGAGC | -0.0989 |
| ACCCGCAA | 0.022 |

Mixed results
| SMILES | tested on | test | system | setting | scale | quantity | result |
| --- | --- | --- | --- | --- | --- | --- | --- |
| C=C1/C(=C\C=C2/CCC[C@]3(C)[C@@H]([C@H](C)/C=C/[C@@H](O)C4CC4)CC[C@@H]23)C[C@@H](O)C[C@@H]1O | mouse MPNST tumor cells | high-content immunofluorescence imaging, item: nuclear SOX9 |  | 10 µM, 12 h, mean of 2 replicates | relative to: DMSO control, higher = more nuclear SOX9 | nuclear SOX9 intensity | 96.6 % of DMSO |
| CC(C)n1cnc(-c2ccc(F)cc2)c1-c1ncc(C(=O)Nc2ccc(N3CCN(C)CC3)cc2)[nH]1 |  | Phase 2a trial, item: oral herpes | idiopathic pulmonary fibrosis patients | oral, 60 mg once daily, grade 3 maximum intensity |  | patients with adverse events | 0% |
| COc1ccc(-c2c(Nc3ccccn3)[nH]c3c(C4=CCCCC4)c(-c4ccccc4)nn3c2=O)cc1 |  | LC-MS/MS non-compartmental | human, plasma | oral, 50 mg once daily, cycle 1 |  | AUC(0-inf) observed | 105 µg·h/mL |
| O=C(Nc1cccc2cccnc12)c1ccc(N2C(=O)[C@@H]3[C@H](C2=O)[C@@H]2C=C[C@H]3C2)cc1 | mouse MPNST tumor cells | high-content immunofluorescence imaging, item: nuclear SOX9 |  | 10 µM, 12 h, mean of 2 replicates | relative to: DMSO control, higher = more nuclear SOX9 | nuclear SOX9 intensity | 85.2 % of DMSO |
